Measured values collected from several papers.
± gives the spread as reported.

CC(=O)c1c(C)c2cnc(Nc3ccc(C4CCN(CCS(C)(=O)=O)CC4)cn3)nc2n(C2CCCC2)c1=O  patients with TEAE grade ≥3 (HR+/HER2- advanced breast cancer patients; oral, 300 mg): 100%
CC(C)CC(=O)OC[C@H]1O[C@@](C#N)(c2ccc3c(N)ncnn23)[C@H](O)[C@@H]1O  fraction unbound (monkey plasma; 0.9 µM): 0.295
C=CC(=O)N1CCC(c2ccc(C(N)=O)c(-c3ccc(Oc4ccccc4)cc3)n2)CC1  incidence of fatal serious TEAEs (CTCAE 4.03; patients with relapsed/refractory MCL; oral, 100 mg twice daily): 0%
COc1ncccc1-c1cnn2ccc(N3CCN(C(=O)OC(C)C)CC3)nc12  drug concentration (mouse, SNL model, brain; oral, 60 mg/kg, 30 min): 62 µM
CN1CC[C@@H](c2c(O)cc(O)c3c(=O)cc(-c4ccc(C(F)(F)F)cc4Cl)oc23)[C@@H]1CO  patients with adverse event (item: Nausea; AML; oral, 150 mg, intermittent dosing): 25%
CCN1[C@@H](C(=O)NC23CCC(C(=O)O)(CC2)CC3)[C@H](c2cccc(Cl)c2F)[C@]2(C(=O)Nc3cc(Cl)ccc32)C12CCCCC2  AST elevation incidence (patients with advanced solid tumours; oral, 200 mg): 0%
CCc1ccc(CC/C=C/c2ccc3c(c2)C(=O)CC3)cc1  hematocrit (Sprague-Dawley rat, female, blood; oral, 120 mg/kg/day, 14 days): 46.4%
CCOC(=O)[C@H](CSC)NC(=O)c1ccc(C2CC2)c(Cc2ccc(F)cc2)n1  kinetic solubility (aqueous buffer with DMSO): < 0.1 µg/mL
Cc1cccc(Cn2nc(C3CC3)c3c(NC(=O)c4cnc5cc(OCCN6CCN(C)CC6)ccn45)cccc32)n1  all-cause adverse events (CTCAE v4.03, item: maculopapular rash; patients with advanced solid tumours; oral, 400 mg, dose escalation, with: pembrolizumab 2 mg/kg IV every 3 weeks): 14.3%
NCCCC[C@@H]1NC(=O)[C@@H](Cc2c[nH]c3ccccc23)NC(=O)[C@H](c2ccccc2)NC(=O)[C@@H]2C[C@@H](OC(=O)NCCN)CN2C(=O)[C@H](Cc2ccccc2)NC(=O)[C@H](Cc2ccc(OCc3ccccc3)cc2)NC1=O  placebo-corrected QTcF change (healthy volunteers, male; 1950 µg twice daily, 1.0 h, post hoc): 10.3 ms
COC[C@@H](CC(C)C)NC(=O)c1ccc(C)c(C)c1  PCE to total erythrocyte ratio (Hsd:ICR (CD-1) mouse, female, bone marrow; oral, 2000 mg/kg, 24 h): 0.588
CO[C@H]1C[C@@H]2CC[C@@H](C)[C@@](O)(O2)C(=O)C(=O)N2CCCC[C@H]2C(=O)O[C@H]([C@H](C)C[C@@H]2CC[C@@H](OC(=O)NCCOCCOCCOCCOCCOCCOCCOCCOCCC(=O)N3CCc4cc(Cn5nc(-c6ccc7oc(N)nc7c6)c6c(N)ncnc65)ccc4C3)[C@H](OC)C2)C[C@@H](O)[C@H](C)/C=C(\C)[C@@H](O)[C@@H](OC)C(=O)[C@H](C)C[C@H](C)/C=C/C=C/C=C/1C  TRAE incidence (phase 1 dose escalation, item: vomiting; advanced solid tumour patients; intravenous, 8 mg weekly, any grade): 25%
C[C@@H]1NC(=O)[C@H](CCCCNC(=O)CO/N=C/C(=O)NCCCC[C@@H]2NC(=O)[C@@H](Cc3ccccc3)NC(=O)[C@H](CC(=O)O)NC(=O)CNC(=O)[C@H](CCCNC(=N)N)NC2=O)NC(=O)CNC(=O)[C@@H]2CCCN2C(=O)[C@H](CCCCNC(=O)CO/N=C/C(=O)NCCCC[C@@H]2NC(=O)[C@@H](Cc3ccccc3)NC(=O)[C@H](CC(=O)O)NC(=O)CNC(=O)[C@H](CCCNC(=N)N)NC2=O)NC(=O)[C@H](CCCCNC(=O)CN2CCCNCCNCCCNCC2)NC(=O)[C@H](CCCCNC(=O)CO/N=C/C(=O)NCCCC[C@@H]2NC(=O)[C@@H](Cc3ccccc3)NC(=O)[C@H](CC(=O)O)NC(=O)CNC(=O)[C@H](CCCNC(=N)N)NC2=O)NC(=O)CNC(=O)[C@@H]2CCCN2C(=O)[C@H](CCCCNC(=O)CO/N=C/C(=O)NCCCC[C@@H]2NC(=O)[C@@H](Cc3ccccc3)NC(=O)[C@H](CC(=O)O)NC(=O)CNC(=O)[C@H](CCCNC(=N)N)NC2=O)NC1=O [copper-64 labelled]  tissue uptake (biodistribution after PET; mouse, U-87 MG tumour xenograft, liver; intravenous, 24 h): 6.69 ± 0.41 %ID/g
